Results of several laboratories.
Each line is one published result; not all experiments were run side by side. ± marks the error that the study gave.
PLEKHA4 PH domain: Pleckstrin homology domain-containing family A member 4, PH domain (PLEKHA4, Homo sapiens, UniProt Q9H4M7)
Sequence of UniProt Q9H4M7 (whole entry, looked up): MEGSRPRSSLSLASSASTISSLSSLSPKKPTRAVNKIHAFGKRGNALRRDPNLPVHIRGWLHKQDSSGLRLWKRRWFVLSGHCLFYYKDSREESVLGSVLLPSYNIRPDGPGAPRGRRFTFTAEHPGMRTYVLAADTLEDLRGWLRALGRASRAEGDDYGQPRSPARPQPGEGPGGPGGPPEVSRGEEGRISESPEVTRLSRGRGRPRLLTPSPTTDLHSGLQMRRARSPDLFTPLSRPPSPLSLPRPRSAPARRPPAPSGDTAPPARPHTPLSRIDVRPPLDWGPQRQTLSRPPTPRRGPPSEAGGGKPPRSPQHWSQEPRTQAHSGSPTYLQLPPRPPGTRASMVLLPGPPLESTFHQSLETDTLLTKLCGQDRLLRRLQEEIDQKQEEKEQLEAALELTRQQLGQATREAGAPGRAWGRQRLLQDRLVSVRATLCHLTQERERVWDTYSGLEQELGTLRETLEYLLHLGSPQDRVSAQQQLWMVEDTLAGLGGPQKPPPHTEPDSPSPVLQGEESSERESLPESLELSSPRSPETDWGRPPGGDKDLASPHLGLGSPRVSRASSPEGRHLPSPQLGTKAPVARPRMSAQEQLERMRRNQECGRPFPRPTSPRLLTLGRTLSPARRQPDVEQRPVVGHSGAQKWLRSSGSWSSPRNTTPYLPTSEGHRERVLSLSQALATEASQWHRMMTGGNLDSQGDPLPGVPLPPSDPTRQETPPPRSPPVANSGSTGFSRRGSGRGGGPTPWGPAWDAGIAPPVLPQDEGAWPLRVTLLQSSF
Isochorismatase domain-containing protein 1: Isochorismatase domain-containing protein 1 (Homo sapiens, UniProt Q96CN7)
Sequence of UniProt Q96CN7 (whole entry, looked up): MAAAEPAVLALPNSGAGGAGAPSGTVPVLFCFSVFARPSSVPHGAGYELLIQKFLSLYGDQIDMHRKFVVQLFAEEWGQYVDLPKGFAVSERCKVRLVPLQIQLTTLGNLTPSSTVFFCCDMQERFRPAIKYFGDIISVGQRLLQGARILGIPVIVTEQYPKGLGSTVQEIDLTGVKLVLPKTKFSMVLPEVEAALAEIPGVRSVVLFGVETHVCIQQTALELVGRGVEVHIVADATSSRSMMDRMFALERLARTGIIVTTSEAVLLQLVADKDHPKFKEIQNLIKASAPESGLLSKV
Sequence of UniProt Q15391 (whole entry, unmodified, looked up): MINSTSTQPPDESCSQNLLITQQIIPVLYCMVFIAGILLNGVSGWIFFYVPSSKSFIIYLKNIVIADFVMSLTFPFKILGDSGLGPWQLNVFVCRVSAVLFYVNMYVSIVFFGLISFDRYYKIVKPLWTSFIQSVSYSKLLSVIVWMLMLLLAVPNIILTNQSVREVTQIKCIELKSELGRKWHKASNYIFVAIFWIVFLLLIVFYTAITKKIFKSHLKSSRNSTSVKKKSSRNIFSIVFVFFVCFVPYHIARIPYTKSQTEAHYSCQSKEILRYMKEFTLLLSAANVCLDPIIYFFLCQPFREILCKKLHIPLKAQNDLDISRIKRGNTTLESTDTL
Sequence of UniProt Q16566 (whole entry, looked up): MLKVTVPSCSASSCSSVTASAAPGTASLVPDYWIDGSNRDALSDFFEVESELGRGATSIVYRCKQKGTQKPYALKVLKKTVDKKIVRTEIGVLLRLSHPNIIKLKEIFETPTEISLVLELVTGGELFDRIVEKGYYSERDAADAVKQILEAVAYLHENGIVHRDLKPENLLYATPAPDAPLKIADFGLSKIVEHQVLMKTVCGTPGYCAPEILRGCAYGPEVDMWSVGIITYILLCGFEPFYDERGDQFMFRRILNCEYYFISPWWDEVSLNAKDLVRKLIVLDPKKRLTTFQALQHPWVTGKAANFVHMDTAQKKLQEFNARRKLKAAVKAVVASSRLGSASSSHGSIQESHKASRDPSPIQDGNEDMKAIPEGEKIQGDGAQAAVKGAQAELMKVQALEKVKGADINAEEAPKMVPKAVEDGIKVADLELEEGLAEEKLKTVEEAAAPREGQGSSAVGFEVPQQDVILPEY
Sequence of UniProt Q9C0K7 (whole entry, looked up): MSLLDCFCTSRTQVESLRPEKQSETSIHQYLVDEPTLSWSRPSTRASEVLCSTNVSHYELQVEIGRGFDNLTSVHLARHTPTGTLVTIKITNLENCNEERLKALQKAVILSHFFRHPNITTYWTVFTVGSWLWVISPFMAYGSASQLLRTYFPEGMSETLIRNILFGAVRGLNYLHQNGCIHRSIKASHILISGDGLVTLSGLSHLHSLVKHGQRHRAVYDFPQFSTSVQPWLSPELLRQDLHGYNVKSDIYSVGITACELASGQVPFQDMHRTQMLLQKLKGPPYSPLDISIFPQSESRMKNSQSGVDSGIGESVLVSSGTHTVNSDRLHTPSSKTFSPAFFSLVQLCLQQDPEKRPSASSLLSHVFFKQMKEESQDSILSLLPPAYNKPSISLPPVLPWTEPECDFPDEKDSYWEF
Sequence of UniProt Q9UKS7 (whole entry, looked up): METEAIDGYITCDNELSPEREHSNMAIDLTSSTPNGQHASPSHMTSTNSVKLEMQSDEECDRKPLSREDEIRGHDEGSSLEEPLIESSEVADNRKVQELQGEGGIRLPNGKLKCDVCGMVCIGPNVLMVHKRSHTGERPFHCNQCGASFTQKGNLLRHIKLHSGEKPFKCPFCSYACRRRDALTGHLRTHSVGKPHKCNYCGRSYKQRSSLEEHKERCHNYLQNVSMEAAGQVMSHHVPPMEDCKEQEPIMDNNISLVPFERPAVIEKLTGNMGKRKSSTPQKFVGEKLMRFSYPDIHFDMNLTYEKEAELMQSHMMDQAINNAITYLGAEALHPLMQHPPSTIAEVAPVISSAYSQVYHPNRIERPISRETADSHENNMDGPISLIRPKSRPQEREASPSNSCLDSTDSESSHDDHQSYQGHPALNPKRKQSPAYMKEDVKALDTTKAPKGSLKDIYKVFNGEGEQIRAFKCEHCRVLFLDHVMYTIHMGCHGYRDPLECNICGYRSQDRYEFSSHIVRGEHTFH
Sequence of UniProt P36897 (whole entry, looked up): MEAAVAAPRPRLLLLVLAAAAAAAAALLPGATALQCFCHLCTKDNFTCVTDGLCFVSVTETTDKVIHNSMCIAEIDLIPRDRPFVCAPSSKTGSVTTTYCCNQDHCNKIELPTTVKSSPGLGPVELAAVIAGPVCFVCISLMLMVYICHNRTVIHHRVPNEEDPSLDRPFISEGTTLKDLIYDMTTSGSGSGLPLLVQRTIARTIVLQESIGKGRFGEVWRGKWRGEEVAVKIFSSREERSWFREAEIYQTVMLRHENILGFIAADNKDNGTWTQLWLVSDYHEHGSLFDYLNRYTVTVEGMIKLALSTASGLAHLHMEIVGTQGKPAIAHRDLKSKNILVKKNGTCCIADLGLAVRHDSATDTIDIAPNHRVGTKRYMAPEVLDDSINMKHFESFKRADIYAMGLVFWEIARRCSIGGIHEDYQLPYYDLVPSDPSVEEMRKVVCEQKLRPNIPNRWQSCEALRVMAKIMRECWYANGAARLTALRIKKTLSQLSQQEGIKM
Sequence of UniProt Q96SW2 (whole entry, looked up): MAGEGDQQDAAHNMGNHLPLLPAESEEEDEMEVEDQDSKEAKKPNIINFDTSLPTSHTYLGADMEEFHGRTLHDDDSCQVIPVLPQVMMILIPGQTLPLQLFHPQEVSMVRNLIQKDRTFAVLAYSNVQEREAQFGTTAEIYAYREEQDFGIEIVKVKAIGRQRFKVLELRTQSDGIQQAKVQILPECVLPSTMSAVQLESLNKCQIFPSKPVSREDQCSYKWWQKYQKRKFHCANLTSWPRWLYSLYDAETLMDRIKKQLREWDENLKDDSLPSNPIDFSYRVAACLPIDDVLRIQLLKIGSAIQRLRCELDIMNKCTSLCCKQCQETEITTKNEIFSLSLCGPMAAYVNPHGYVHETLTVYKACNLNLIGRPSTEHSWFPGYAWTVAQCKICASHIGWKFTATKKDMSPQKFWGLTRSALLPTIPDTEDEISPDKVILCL

Cc1ccccc1-c1nc(-c2ccc(F)cc2)c(-c2ccncc2)[nH]1 has an IC50 of 0.145 ± 0.0063 µM (TGF-beta receptor type-1 (TGFBR1, Homo sapiens, UniProt P36897); binding, LanthaScreen kinase binding).
Cc1cncc(C)n1 has an EC50 of > 1500 µM (uncharacterized protein (Canis lupus familiaris, UniProt A0A8I3P1R6); cAMP level, agonist, cAMP luminescence; HEK293 cells).
Cc1cc(O)c2c(c1)C(=O)c1cc(O)cc(O)c1C2=O has a viability of 64.7 ± 6.11% (HK-2 co-cultured with HepaRG; MTT; 133.33 µM, 48 h; baseline: untreated control).
Under “number of kinases inhibited”, Cc1nn(CC(F)(F)F)cc1Nc1ncc(C2CC2)c(NCCCNC(=O)C2CCC2)n1 is recorded as 1 (16-kinase panel; radiometric; 1 µM, ATP at Km; below 10% of control).
For CC(C)[C@H](NC(=O)[C@H](Cc1ccc(O)cc1)NC(=O)[C@H](Cc1ccc(O)cc1)NC(=O)[C@@H]1CCCN1C(=O)[C@H](CCC(=O)O)NC(=O)[C@H](CCC(=O)O)NC(=O)[C@H](Cc1c[nH]c2ccccc12)NC(=O)[C@@H]1CCCN1C(=O)[C@@H](NC(=O)[C@H](CCC(N)=O)NC(=O)c1ccc2c(c1)C(=O)OC21c2ccc(O)cc2Oc2cc(O)ccc21)C(C)C)C(=O)N[C@H](C(=O)N[C@@H](CCCCN)C(=O)N[C@@H](CCCCN)C(=O)N[C@@H](CO)C(=O)N[C@@H](CO)C(=O)NCC(=O)NCC(N)=O)C(C)C, plasma concentration read “not detected” (human, plasma; intravenous infusion, 400 mg, predose, day 1).
The IC50 of CC[C@@H]1[C@H](F)C(=O)N[C@@H]1COc1nccc2cc(C(N)=O)c(OC)cc12 is reported as > 5 µM (STE20-related kinase adapter protein beta (Homo sapiens, UniProt Q9C0K7); ATP-site binding, ActivX KiNativ profiling; THP-1 cell lysate; Lys1 STLK6 probe site).
COc1cc2c(c(OC)c1OC)-c1c(cc(OC)c(OC)c1OC)C[C@H](C)[C@H](C)C2 has a αKi of 5.98 µM (CYP3A, rat; poziotinib metabolism to M2, inhibitor; rat liver microsomes; with: poziotinib).
Under “number of kinases inhibited”, NS(=O)(=O)c1ccc(CNc2nc(Nc3cccc(CN4CCOCC4)c3)ncc2Br)cc1 is recorded as 4 (16-kinase panel; radiometric; 1 µM, ATP at Km; below 10% of control).
With Nc1nc2c(ncn2[C@@H]2O[C@@H]3COP(=O)(O)O[C@H]3[C@H]2O)c(=O)[nH]1 the EC50 was 112 µM (Cone cGMP-gated channel (Morone saxatilis, UniProt Q3I0N1+Q3I0N2); channel current, agonist, suction electrode; Morone saxatilis cone outer segments; with: 0 µM Ca2+).
The Ki of CCOc1ccc(C(=O)CC(SCc2ccc(Cl)cc2)C(=O)OC)cc1 (centres unmarked) is reported as > 1000 µM (PLEKHA4 PH domain; PLEKHA4 PI(4,5)P2 binding, fluorescence polarization; with: BODIPY-PI(4,5)P2 tracer).
Brc1cnc(Nc2cccc(CN3CCOCC3)c2)nc1NCCc1c[nH]cn1 — result for “number of kinases inhibited”: 13 (16-kinase panel; radiometric; 1 µM, ATP at Km; below 10% of control).
The αKi of COc1cc2c(c(OC)c1OC)-c1c(cc3c(c1OC)OCO3)CC(C)C(C)C2 (centres unmarked) is reported as 6.18 µM (CYP3A, rat; poziotinib metabolism to M1, inhibitor; rat liver microsomes; with: poziotinib).
C/C=C1\NC(=O)[C@H]2CSSCC/C=C/[C@H](CC(=O)N[C@H](C(C)C)C(=O)N2)OC(=O)[C@H](C(C)C)NC1=O gave a Kd of > 30.2 µM (Isochorismatase domain-containing protein 1; inhibitor, competition pulldown; SW620 and MV4-11 lysate; 1 h).
NS(=O)(=O)c1ccc(CNc2ccnc(Nc3cccc(CN4CCOCC4)c3)n2)cc1 — result for “number of kinases inhibited”: 0 (16-kinase panel; radiometric; 1 µM, ATP at Km; below 10% of control).
For COc1ccc(C(=O)CC(SCc2ccc(Cl)cc2)C(=O)O)cc1 (centres unmarked), the Ki was 167 ± 44 µM (PLEKHA4 PH domain; PLEKHA4 PI(4,5)P2 binding, fluorescence polarization; with: BODIPY-PI(4,5)P2 tracer).
For CN1CCN(c2ccc(Nc3ncc4cc(C#N)c(=O)n(C5CCCC5)c4n3)cc2)CC1, the IC50 was 1.8 µM (Calcium/calmodulin-dependent protein kinase type IV (CAMK4, Homo sapiens, UniProt Q16566)).
For O=C(NCCCNc1nc(Nc2cccc(NC(=O)N3CCCC3)c2)ncc1Br)C1CCC1, “number of kinases inhibited” read 16 (16-kinase panel; radiometric; 1 µM, ATP at Km; below 10% of control).
CC(C)C[C@H](NC(=O)C[C@H](O)[C@H](CC(C)C)NC(=O)[C@H](Cc1c[nH]cn1)NC(=O)CNC(=O)[C@@H](NC(=O)[C@H](C)NC(=O)[C@H](Cc1c[nH]c2ccccc12)NC(=O)[C@H](CCC(N)=O)NC(=O)[C@@H](Cc1ccccc1)NC(=O)COCCOCCNC(=O)CCC(C(=O)O)N1CCN(CC(=O)O)CCN(CC(=O)O)CCN(CC(=O)O)CC1)C(C)C)C(N)=O (some centres unmarked) [lutetium-177 labelled] gave a tissue uptake of 0.21 ± 0.04 %ID/g (BALB/c nu/nu mice, bone; intravenous, 250 pmol, 1 h, with: PA 300 µg).
CCOc1ccccc1C(=O)CC(SCc1ccc(Cl)cc1)C(=O)O (centres unmarked) has a Ki of 83 ± 14 µM (PLEKHA4 PH domain; PLEKHA4 PI(4,5)P2 binding, fluorescence polarization; with: BODIPY-PI(4,5)P2 tracer).
Under “number of kinases inhibited”, CN1CCc2cc(Nc3ncc(C4CC4)c(NCCCNC(=O)C4CCC4)n3)ccc2C1 is recorded as 16 (16-kinase panel; radiometric; 1 µM, ATP at Km; below 10% of control).
CCCCOc1ccc(CC(=O)NO)cc1 gave a Kd of 3.73 µM (Isochorismatase domain-containing protein 1; inhibitor, competition pulldown; SW620 and MV4-11 lysate; 1 h).
With O=C(O)c1cc(O)c2c(c1)C(=O)c1cccc(O)c1C2=O the viability was 45.8 ± 4.09% (HK-2 co-cultured with HepaRG; MTT; 66.67 µM, 48 h; baseline: untreated control).
CC(=O)c1c(C)c2cnc(Nc3ccc(N4CCN(CCCOc5ccc(CN6CCC(c7ccc8c(c7)CN(C7CCC(=O)NC7=O)C8=O)CC6)cc5)CC4)cn3)nc2n(C2CCCC2)c1=O (centres unmarked) has a DC50 of 0.099 µM (CRBN/Zinc finger protein Helios (Homo sapiens, UniProt Q96SW2+Q9UKS7); protein degradation, degrader, immunoblot; Jurkat; 4 h).
For Cc1nn(CC(F)(F)F)cc1Nc1nccc(NCCc2cnc[nH]2)n1, “number of kinases inhibited” read 0 (16-kinase panel; radiometric; 1 µM, ATP at Km; below 10% of control).
For O=c1ccn([C@@H]2O[C@H](COP(=O)(O)OP(=O)(O)O[C@H]3O[C@H](CO)[C@@H](O)[C@H](O)[C@H]3O)[C@@H](O)[C@H]2O)c(=S)[nH]1, the Ki was > 3 µM (P2Y purinoceptor 14 (P2RY14, Homo sapiens, UniProt Q15391, Y256A)).
C#CCOc1cccc(C(=O)CC(SCc2cccc(Br)c2)C(=O)O)c1 (centres unmarked) has a Ki of 39 ± 7.1 µM (PLEKHA4 PH domain; PLEKHA4 PI(4,5)P2 binding, fluorescence polarization; with: BODIPY-PI(4,5)P2 tracer).
Under “log2 fold change”, Cn1cc(-c2ccc(-c3cncc(Cl)c3N3CCC4(CCNC4=O)CC3)cc2)cn1 is recorded as 2.59 (COLO 205; gene expression, microarray, item: ISG15 mRNA; concentration not given, 2 h; baseline: untreated cells).
For CCOc1ccc(C(=O)CC(SCc2ccc(Cl)cc2)C(=O)O)cc1OCC (centres unmarked), the Ki was 53.6 ± 8 µM (PLEKHA4 PH domain; PLEKHA4 PI(4,5)P2 binding, fluorescence polarization; with: BODIPY-PI(4,5)P2 tracer).
Under “number of kinases inhibited”, NS(=O)(=O)c1ccc(CNc2nc(Nc3cccc(NC(=O)N4CCCC4)c3)ncc2C2CC2)cc1 is recorded as 1 (16-kinase panel; radiometric; 1 µM, ATP at Km; below 10% of control).

Repeated from above:
CCCCOc1ccc(CC(=O)NO)cc1 gave a Kd of 3.73 µM (Isochorismatase domain-containing protein 1; inhibitor, competition pulldown; SW620 and MV4-11 lysate; 1 h).
Under “number of kinases inhibited”, Cc1nn(CC(F)(F)F)cc1Nc1ncc(C2CC2)c(NCCCNC(=O)C2CCC2)n1 is recorded as 1 (16-kinase panel; radiometric; 1 µM, ATP at Km; below 10% of control).
